# Results pooled from the literature.
# Each numbered part is a random draw from the data of one study; scales do not carry over between parts.

# Series 1
# Target: RNA binding protein fox-1 homolog 2, RRM domain, GST-SBP tag (RBFOX2, Homo sapiens, UniProt O43251-10, residues 100-194)
# Technique: RNA Bind-n-Seq
# Form: RNA
# Matrix: in vitro
# Tested at: 365 nM
# Notes: natural RNA segment, single round, ends assumed
# Reference: no-protein control
# Reading: higher = stronger binding
# All sequences stand within: GGGAGUUCUACAGUCCGACGAUC … UGGAAUUCUCGGGUGCCAA
# Target sequence (chain): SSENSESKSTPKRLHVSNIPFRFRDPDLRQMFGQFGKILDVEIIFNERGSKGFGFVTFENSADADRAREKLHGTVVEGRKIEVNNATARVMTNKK
Oligonucleotide,RBNS enrichment (R)
ACACACGCUCGCACAGUGUUCUGAGGAAGGAACCUUCGCCACAGACUCCUGUACUAUUAACAAUCUGUAACCAAGCUAACUGUCUCAUCCAUGUGUUGAUUUCCUGUUUC,0.801
GCCUCUUGUAGUGAUGAUGGGGAGGUAGCCUUCUGGGAGUAUCACCAGCCUGCAGGUCUCUGAGCUAUAGCUUGACUUGGGAGUCUUGAUUCCCACAGAAAACGUCCUAA,0.705
CAAGGCUGACUCGCUUUCACCAGGGCCACCAGGGCCAUCCAGUGUUGUUUAAUUACAGUCGGAAAGACUUAAGGUUUUUCUUUUAAUUUAAUUUAUUCCCUGACAUUGCU,0.399
CAUCUGUGCCAACGGUUGGACUUUUUAUGGCUGAGAUUCGGGAGGAAGUGUGACACCAAGCAGGAGAGGAAGAAUGAUUUUCUUUGUACUUAGGUUUUCUAAGGACAUUG,1.44
CCUGCCUCUCUGCCAUGAGGGCUUUGGAUCAGAUUCCUCUUCUCGCCAGGAUGAGGACACGCACUGCCCUCCAUAGACACAGAUGAAGGGGUGGGGGUCAUUCAGCUCGA,0.284
UGCUGAACUGUCAUAAAAUUUUUUCAACCCUUUAUUGUGAUUUCCAAUGUCUUGAAGUUUUAAGUGUUUUGACCAGUGUGUAAUGUUAAAUUCAGAGGCUACAGUAUAUC,0.599
UAUAAUGGAUCAUGCAUAAUUUCUCAGGAGAAUAAAAUGAGAAUUCAUAUAUACGUUCAUCUUUCAAGUCAGAGCAAUGAGUUGGGAAAAGAGGUGGCAUUUCUGAUCGG,0.506
UUGCAGCUCUCUGGGCUGUGACUCUGUUAAGAAGGUUUGCCAGCUUUCUGGCCCUUCCCCGCUCCUAGUUACUAGAUGACCAUACUCAUACUUGCAAAGGAGAGGAGAGA,0.26
CAUUAGCCUGUGCAAAACCAUCUGUUUGGGGAGCACACUCUUCCAUUAUGCUUGGCACAUAGAUCUCCCUGUGGUGGGAUUUUUUUUUUCCCUUUUUUUGUGGGGGAGGG,0.345
UAUAGUUUGCACUUUUUAAUCUAAAGUCAUCCCUUCUGAGUGAAAUUUGCUCAUAAAGCAUUUGGAUACUAAGCCAUUAUUUGCCAUUUUGGGUACUUUAUACAAAGAAA,0.436
UAGGCUUCUAUGAAUUCAGCCUGUUUCUAAAAGCUGAAAAUCUCAGUUUAAAAAUCAAAAUGUUAACACAAAGCUAAGAUUCAUCAGAGCCCACCCUAUUCUAAGGAACC,0.264
GCCCUACAGAGGUCUCUGCCGGCUCUUUCCUUGCUCAACCAUGGCUGAAGGAAACCAGUGCAACAGCACUGGCUCUCUCCAGGAUCCAGAAGGGGUUUGGUCUGGGACUU,0.264

# Series 2
# Target: PABPC1L2, full length, GST fusion (mouse, UniProt A0ABA7IW68)
# Technique: RNAcompete
# Form: RNA
# Matrix: in vitro
# Tested at: 20 nM
# Notes: 7-mer, probes averaged, single round
# Reference: mean of 7-mers
# Reading: higher = stronger binding
# Target sequence (chain): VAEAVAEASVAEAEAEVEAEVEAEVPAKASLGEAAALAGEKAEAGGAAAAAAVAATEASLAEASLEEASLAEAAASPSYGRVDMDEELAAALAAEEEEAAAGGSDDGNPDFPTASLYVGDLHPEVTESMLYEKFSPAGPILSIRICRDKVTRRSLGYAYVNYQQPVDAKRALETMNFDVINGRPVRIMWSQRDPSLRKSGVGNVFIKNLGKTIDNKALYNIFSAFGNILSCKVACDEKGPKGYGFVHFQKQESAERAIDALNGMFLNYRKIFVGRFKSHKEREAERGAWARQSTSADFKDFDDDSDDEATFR
Oligonucleotide,7-mer Z-score
GUGGAAU,0.0569
GAGGCGU,-0.0391
UAAACCA,0.497
CCUCUUA,-0.238
GAAACCC,-0.0881
GUCUCGC,-0.423
CGCGUAA,-0.18
GCGUUAG,-0.304
UGAAUAG,-0.186
UUGAGCG,-0.22
ACUACUU,-0.0808
UGCCUAG,-0.19
AUUCCCU,-0.331
AUUCGAG,-0.0863
CGUGAUU,-0.157
ACCUAAC,-0.248
UAAUAAU,-0.124

# Series 3
# Target: Sal-like protein 4, full length isoform A (SALL4, Homo sapiens, UniProt Q9UJQ4, residues 1-1053)
# Chain of UniProt Q9UJQ4 (whole entry, looked up): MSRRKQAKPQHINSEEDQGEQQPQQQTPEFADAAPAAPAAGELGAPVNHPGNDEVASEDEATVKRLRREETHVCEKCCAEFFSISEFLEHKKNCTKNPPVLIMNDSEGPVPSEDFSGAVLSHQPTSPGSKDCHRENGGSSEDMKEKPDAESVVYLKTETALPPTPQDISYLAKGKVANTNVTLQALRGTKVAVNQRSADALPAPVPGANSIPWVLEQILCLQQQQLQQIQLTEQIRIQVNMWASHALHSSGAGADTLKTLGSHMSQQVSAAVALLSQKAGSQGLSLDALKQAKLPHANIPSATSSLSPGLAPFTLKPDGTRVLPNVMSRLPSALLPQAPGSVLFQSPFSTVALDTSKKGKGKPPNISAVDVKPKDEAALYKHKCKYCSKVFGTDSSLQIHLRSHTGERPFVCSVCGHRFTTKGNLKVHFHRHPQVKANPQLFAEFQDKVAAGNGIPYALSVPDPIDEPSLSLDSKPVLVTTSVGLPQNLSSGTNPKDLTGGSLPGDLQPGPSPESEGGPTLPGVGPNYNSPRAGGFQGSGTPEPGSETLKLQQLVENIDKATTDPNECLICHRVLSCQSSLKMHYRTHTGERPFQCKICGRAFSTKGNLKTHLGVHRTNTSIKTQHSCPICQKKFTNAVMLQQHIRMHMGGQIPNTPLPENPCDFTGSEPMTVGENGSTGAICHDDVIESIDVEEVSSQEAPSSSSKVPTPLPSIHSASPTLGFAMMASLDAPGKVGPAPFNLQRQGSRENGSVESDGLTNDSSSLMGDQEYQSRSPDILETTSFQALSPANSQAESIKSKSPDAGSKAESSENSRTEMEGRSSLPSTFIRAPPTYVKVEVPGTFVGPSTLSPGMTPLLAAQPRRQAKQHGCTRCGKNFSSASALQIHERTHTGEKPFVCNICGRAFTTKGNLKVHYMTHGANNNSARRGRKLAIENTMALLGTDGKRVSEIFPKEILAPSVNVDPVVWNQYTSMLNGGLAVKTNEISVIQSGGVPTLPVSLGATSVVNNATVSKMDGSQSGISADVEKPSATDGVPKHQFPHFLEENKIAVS
# Technique: universal PBM
# Form: double-stranded DNA, one strand shown
# Matrix: in vitro
# Tested at: 600 nM
# Notes: 8-mer, flanks averaged, mean of replicates
# Reading: higher = stronger binding
Oligonucleotide,E-score
CACCCGAG,-0.235
GAGCCGAC,-0.396
CAGACGGA,-0.153
CTTATCTA,0.335
ACTATCAC,0.147
GCGAGAAC,-0.168
AGCTTCGA,-0.14
GCATAATA,0.407
CCTGTGAC,-0.156
ACCCACTA,-0.0129
CCTTCGAG,-0.317
ATTCGCGC,-0.0779
AGGAGACA,0.119
AGTACCCG,-0.158
AACCTTTG,0.095
AACATCCA,-0.0159
CAGGCGCA,-0.237
ATCCAACA,0.111

# Series 4
# Target: Histone acetyltransferase KAT6A, both winged helices, GST fusion (KAT6A, Homo sapiens, UniProt Q92794, residues 1-181)
# Technique: protein binding microarray
# Form: double-stranded DNA, one strand shown
# Matrix: in vitro
# Tested at: not given
# Notes: 8-mer, flanks averaged, mean of 2 arrays, mostly near background
# Reference: not given
# Reading: higher = stronger binding
# Target sequence (chain): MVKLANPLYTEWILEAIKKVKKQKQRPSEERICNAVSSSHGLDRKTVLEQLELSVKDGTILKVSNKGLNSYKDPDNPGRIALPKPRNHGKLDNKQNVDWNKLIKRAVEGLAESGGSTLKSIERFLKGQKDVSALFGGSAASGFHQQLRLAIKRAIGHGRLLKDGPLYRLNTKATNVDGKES
Oligonucleotide,E-score
TAATCAAA,-0.00885
AATTCCTC,-0.0796
AGAAGTCT,-0.18
CAAACTCG,-0.0418
GCGTTCAC,0.111
CGATCATC,-0.0292
CATCGGCC,0.22
AAGCAACT,-0.175
AAGATACG,0.104
TCGTACAA,0.0526
TCGTTACA,-0.0978
TGTTTTAA,-0.0108
TAACTCCA,-0.112
AACAGTAT,-0.152
AGACGAAG,-0.105
GAAGCGCC,0.248
CTCCGATC,0.0651
AGCCAGGC,-0.151
AGGTATTC,-0.0774
ATATCGCA,-0.024
ATCTCTGC,-0.17
ACCGTTTC,0.146
ATAGAGTG,-0.131
CATTAGCC,-0.0959
CCAGGGTC,-0.202

# Series 5
# Target: Interferon regulatory factor 7, full length, phosphomimetic (IRF7, Homo sapiens, UniProt Q92985, residues 1-503, S471D/S472D/S475D/S476D/S477D/S483D/S484D/S487D)
# Technique: protein-binding microarray
# Form: double-stranded DNA, one strand shown
# Matrix: in vitro
# Tested at: 2200 nM top
# Notes: 60-bp whole probe
# Added: salmon DNA 0.4 mg/ml
# Reference: random background probes
# Reading: higher = stronger binding
# All sequences stand within: GCCTAGCAC … GTCTTGATTCGCTTGACGCTGCTG
# Construct (chain): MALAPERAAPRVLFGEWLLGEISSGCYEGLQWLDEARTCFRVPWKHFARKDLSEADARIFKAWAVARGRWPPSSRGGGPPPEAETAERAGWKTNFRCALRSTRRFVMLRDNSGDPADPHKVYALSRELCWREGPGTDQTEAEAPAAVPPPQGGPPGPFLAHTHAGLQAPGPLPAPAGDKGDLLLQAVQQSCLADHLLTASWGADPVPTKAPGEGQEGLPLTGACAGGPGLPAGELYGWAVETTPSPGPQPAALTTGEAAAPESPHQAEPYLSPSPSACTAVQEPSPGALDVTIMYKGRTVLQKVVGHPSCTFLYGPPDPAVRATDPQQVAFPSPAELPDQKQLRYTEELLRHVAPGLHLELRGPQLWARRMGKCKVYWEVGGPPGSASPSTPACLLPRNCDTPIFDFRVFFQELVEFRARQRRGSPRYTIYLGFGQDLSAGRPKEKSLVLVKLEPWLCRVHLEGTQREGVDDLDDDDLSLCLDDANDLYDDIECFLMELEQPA
Oligonucleotide,fitted relative affinity [z-score]
TTAGATCACAGTATCGATTAGTGCTAG,0.194
TTAGAACTGGGCTTTCGATTAGTGCTA,1.68
TGAGAACTGAGTTTCGATTAGTGCTAG,3.46
GGCGGTTTCGGTTTCGGGACGTGCTAG,15.1
GACGTTTTCGGACTGGGGACGTGCTAG,3.18
TTAGGTTTCCTTTTTCTTTAGTGCTAG,3.87
TAAGGTTTCGGGTATCGGTTAGTGCTA,5.89
GGCGATTTCGGGTTTCGAGACGTGCTA,5.25
CTCATTCTCTGTTTATGTCTGTGCTAG,2.96
TTAGGGTTCGGTTCCGGTTAGTGCTAG,2.21
TTAAAACTGAGTCTCGATTAGTGCTAG,-0.421
GACGAACTGAGACTGGAGACGTGCTAG,-0.164
TTAGGTACCGACTTTCGGTTAGTGCTA,5.81
GACGGTCTCGGACTGGGTACGTGCTAG,-0.526
TTCGGTCTCCTTTTCCTTTAGTGCTAG,2.91
TTAGATTTCGGGTTTCGATTCGTGCTA,9.9
TTAGGTCTCGGCTTCGGTTAGTGCTAG,0.554
TTACGACTGGACTATCGGTTAGTGCTA,0.573
GGCTTCCTCTTTCTCTGCTAGTGCTAG,2.17
TCAACTTTCTCTGCTCTTTTCGTGCTA,2.09
GACGGTCTCGTACTGGGGACGTGCTAG,-0.247
TTAGGACTGGGCTATCGGTTAGTGCTA,-0.817
TTAGATTTCCTTCTCCTTTAGTGCTAG,1.76
GACGAATTGGGGTTTCGAGACGTGCTA,1.72
GACGGTTTCGGGACTTGGGACGTGCTA,3.66

# For quick reference, copied from above (series 2):
Oligonucleotide,7-mer Z-score
UUGAGCG,-0.22
ACUACUU,-0.0808
UGCCUAG,-0.19
AUUCCCU,-0.331
AUUCGAG,-0.0863
CGUGAUU,-0.157
ACCUAAC,-0.248
UAAUAAU,-0.124
